Experimental data of several laboratories.
Compare with care: the assays were run in different laboratories. Values joined by “and” are separate records of one study, mostly repeats; a detail may differ. ± marks the error that the study gave.
FFAR4: Free fatty acid receptor 4 (FFAR4, Homo sapiens, UniProt Q5NUL3)
TRPM8: Transient receptor potential cation channel subfamily M member 8 (TRPM8, Homo sapiens, UniProt Q7Z2W7)
Kir3.1/Kir3.2: Kir3.1/Kir3.2 (Homo sapiens, UniProt P48051+P48549)
TOP2A: DNA topoisomerase 2-alpha (TOP2A, Homo sapiens, UniProt P11388)
GAP50: Glideosome-associated protein 50 (GAP50, Plasmodium falciparum, UniProt Q8I2X3)
NADH dehydrogenase [ubiquinone] iron-sulfur protein 7, mitochondrial/NADH dehydrogenase [ubiquinone] iron-sulfur protein 2, mitochondrial/MT-ND1: NADH dehydrogenase [ubiquinone] iron-sulfur protein 7, mitochondrial/NADH dehydrogenase [ubiquinone] iron-sulfur protein 2, mitochondrial/MT-ND1 (Homo sapiens, UniProt O75251+O75306+P03886)
T1: ssDNA, aptamer; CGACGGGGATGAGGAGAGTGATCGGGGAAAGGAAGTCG

The inhibition of `CCCCCCN(C)c1cc(=O)[nH]c(=O)[nH]1` is reported as 16 ± 13% (FFAR4; antagonist, β-arrestin recruitment; CHO cells; 10 µM, together with: 4 µM TUG-891).
With `CC[C@@H]1[C@H](F)C(=O)N[C@@H]1COc1nccc2cc(C(N)=O)c(OC)cc12` the inhibition was 5.2% (CAMK1D (Homo sapiens, UniProt Q8IU85); ATP-site probe binding, ActivX profiling; THP-1 cell lysate; 0.2 mM, Lys2 site).
With `COc1ccccc1CNCCCCCCNCCCCCCCCNCCCCCCNCc1ccccc1OC` the Hill coefficient was 0.9 (CHRM2 (Homo sapiens, UniProt P08172); binding, antagonist, radioligand binding).
`NC(Cc1cc(I)c(Oc2cc(I)c(O)c(I)c2)c(I)c1)C(=O)O` (stereo not shown): “activity relative to T3” 19.1% (Thyroxine 5-deiodinase (DIO3, Homo sapiens, UniProt P55073, C168G); deiodination, substrate; concentration not given; baseline: T3).
The remaining activity of `COc1ccc(Cl)cc1NC(=O)Nc1cc(C)nc2ccccc12` is reported as 96.9 ± 5.34% (TRPM8; antagonist; HEK293; 5 µM; baseline: control).
For `Cc1[nH]c(N)nc1CCC(=O)c1cc(F)cc(F)c1.Cl`, the Hill coefficient was 1.16 ± 0.1 (HVCN1 (Homo sapiens, UniProt Q96D96); proton current, inhibitor, inside-out patch clamp; Xenopus oocytes; dimeric channel).
With `O=C(COc1ccc(Cl)cc1Cl)Nc1cc(C2CCC2)nn1CC(F)(F)F` the Emax was < 10% (Kir3.1/Kir3.2; thallium flux, activator; HEK293; baseline: standard compound).
The Förster distance of `CCS(=O)(=O)N1CC(CC#N)(n2cc(-c3ncnc4[nH]ccc34)cn2)C1` is reported as 2.3 nm (ORM1 (Homo sapiens, UniProt P02763); FRET).
`Cc1nc(CSc2nc(SCc3ccc(C(C)C)cc3)nc(=O)[nH]2)cs1` has a relaxed DNA of 12% (TOP2A; DNA relaxation; 125 µM, replicate 1).
For `CCCCCCNc1[nH]c(=O)[nH]c(=O)c1Br`, the inhibition was 6 ± 4% (FFAR4; antagonist, β-arrestin recruitment; CHO cells; 10 µM).
`Nc1ccc(C(=O)O)cc1` gave a current density of 8.89 pA/pF and 20.4 pA/pF and 17.1 pA/pF and 22.7 pA/pF and 9.35 pA/pF and 33.3 pA/pF (BEST1, with wild-type BEST1 (Homo sapiens, UniProt O76090, A10T); whole-cell patch clamp; HEK293 co-expressing WT and A10T mutant; concentration not given, membrane potential 60 mV).
With `CO[C@H]1/C=C/O[C@@]2(C)Oc3c(C)c(O)c4c(O)c(c(/C=N/N5CCN(C)CC5)c(O)c4c3C2=O)NC(=O)/C(C)=C\C=C[C@H](C)[C@H](O)[C@@H](C)[C@@H](O)[C@@H](C)[C@H](OC(C)=O)[C@@H]1C` the koff was 0.00308 s⁻¹ (GAP50; binding, surface plasmon resonance; 1:1 binding model).
`Oc1ccccc1-c1n[nH]cc1-c1ccnc2ccccc12` — result for “log2 fold change”: 0.04 (Serine/threonine-protein kinase PKH2 (Candida albicans, UniProt Q5A3P6); kinase binding, MIB/MS competition; Candida albicans lysate; 1 µM; baseline: DMSO, negative = stronger binding).
With `CN(C)C(=O)C(CCN1CCC(O)(c2ccc(Cl)cc2)CC1)(c1ccccc1)c1ccccc1` the Hill coefficient was 0.831 ± 0.14 (Calcium-activated potassium channel subunit alpha-1, with LRRC26 γ1 subunit (KCNMA1, Homo sapiens, UniProt Q12791); BK channel conductance, inside-out patch clamp; BKα/γ1, Vm 30 mV, nominally Ca2+-free).
`O=C1NC(=O)/C(=C/c2ccc3nccnc3c2)S1` gave a remaining activity of 110 ± 8.03% (TRPM8; antagonist; HEK293; 5 µM; baseline: control).
With `CCCCCCCCNc1[nH]c(=O)[nH]c(=O)c1Br` the inhibition was 14 ± 3% (FFAR4; antagonist, β-arrestin recruitment; CHO cells; 10 µM).
`Cc1cc2c(c(=O)[nH]1)C(=O)O/C2=C\c1ccccc1Cl`: “binding free energy” -8.47 kcal/mol (Dual specificity calcium/calmodulin-dependent 3',5'-cyclic nucleotide phosphodiesterase 1C, isoform PDE1C2 (PDE1C, Homo sapiens, UniProt Q14123); enzyme activity, inhibitor; together with: 3H-cGMP substrate).
`O=C1Nc2c(ccc(Cl)c2Cl)C1=NO` gave a Hill coefficient of 1.4 (KCNN4/CALM1 (Homo sapiens, UniProt O15554+P0DP23, L185A); activator, whole-cell patch clamp; HEK293 (L185A mutant)).
`COc1ccc(CCNc2cc(=O)[nH]c(=O)[nH]2)cc1` gave an agonist effect of 0% (FFAR4; agonist, β-arrestin recruitment; CHO cells; 10 µM; baseline: 30 µM TUG-891).
`COCCOCc1ccc(-c2cc3onc(-c4ccccc4)c3c(=O)n2C)cc1` has an activation of 1.31 ± 0.02 fold (Nuclear receptor subfamily 4 group A member 2, LBD (Homo sapiens, UniProt P43354); reporter gene, Gal4 hybrid reporter; 1 µM; baseline: vehicle).
The Hill slope of `COc1cc(NC(=O)c2cccs2)c2ncccc2c1` is reported as 2 (3-oxoacyl-[acyl-carrier-protein] reductase FabG (fabG, Pseudomonas aeruginosa, UniProt O54438); enzyme activity, inhibitor, NADPH fluorescence; reverse reaction, together with: 3-OH-decanoyl-NAC, NADP).
Under “activation time constant”, `c1ccc(C(NCc2cccnc2)(c2ccccc2)c2ccccc2)cc1` is recorded as 2 ± 0.5 s (Potassium voltage-gated channel subfamily KQT member 1, with KCNE1 (KCNQ1, Homo sapiens, UniProt P51787); IKs; 300 pM, with KCNE1).
For `Cc1nn(C2CCS(=O)(=O)C2)c(C)c1NC(=O)COc1cccc(Cl)c1Cl` (stereo not shown), activity read “inactive” (Kir3.1/Kir3.2; activator, thallium flux; HEK293; concentration not given).
`Nc1ncnc2c1ncn2[C@@H]1O[C@H](COP(=O)(O)OP(=O)(O)OP(=O)(O)O)[C@@H](O)[C@H]1O` gave a Kd of 1.1 µM (T1, ssDNA, aptamer; ITC).
For `Nc1ncnc2c1ncn2[C@@H]1O[C@H](COP(=O)(O)CP(=O)(O)OP(=O)(O)O)[C@@H](O)[C@H]1O`, the calcium influx was 0% and 1.13% and 0.679% (P2X purinoceptor 1 (P2RX1, Homo sapiens, UniProt P51575, R139P); calcium influx; 10 nM; baseline: ionomycin response).
With `Nc1nc2c(ncn2[C@@H]2O[C@@H]3COP(=O)(O)O[C@H]4[C@@H](O)[C@H](n5cnc6c(=O)[nH]c(N)nc65)O[C@@H]4COP(=O)(O)O[C@H]3[C@H]2O)c(=O)[nH]1` the ΔS was 29.2 cal/mol/K (Cell cycle histidine kinase CckA, CA domain (Caulobacter vibrioides, UniProt Q9X688); binding, ITC; together with: ADP 5 mM).
For `CCCCCCCCNc1cc(=O)n(C)c(=O)n1C`, the inhibition was 30 ± 3% (FFAR4; antagonist, β-arrestin recruitment; CHO cells; 10 µM, together with: 4 µM TUG-891).
For `CC(C)[C@@H]1CC[C@@H](C)C[C@H]1O`, “exchange rate kex” read 4000 ± 3000 s⁻¹ (TRPM8; 19F CPMG relaxation dispersion; concentration not given, 25 °C, together with: saturating ligand).
`NC(=O)NOCCCCCCCCCCCC[P+](c1ccccc1)(c1ccccc1)c1ccccc1.O=C([O-])C(F)(F)F` — result for “oxygen consumption rate”: 1.55 ± 5.5% (NADH dehydrogenase [ubiquinone] iron-sulfur protein 7, mitochondrial/NADH dehydrogenase [ubiquinone] iron-sulfur protein 2, mitochondrial/MT-ND1; complex I-dependent respiration, Seahorse XF96; HCT-116; 5 µM, 24 h; baseline: control).
The activation of `O=C(O)CCCCCNc1cc(=O)[nH]c(=O)[nH]1` is reported as 0% (FFAR4; agonist, β-arrestin recruitment; CHO cells; 10 µM).
`O=C(NCc1ccc(CNS(=O)(=O)c2ccccc2)cc1)c1cccc(Cl)c1` gave an EC of 1000 nM (CXCR4 (Homo sapiens, UniProt P61073); binding, inhibitor, competitive binding; MDA-MB-231; together with: biotinylated TN14003).
With `CCCCCCCNc1[nH]c(=O)[nH]c(=O)c1N=O` the activation was 0% (FFAR4; agonist, β-arrestin recruitment; CHO cells; 10 µM).
`CC(C)(c1cc(N)c(O)c(N)c1)c1cc(N)c(O)c(N)c1` — result for SERCA1 inhibition: “inactive” (ATP2A1 (Oryctolagus cuniculus, UniProt P04191); ATPase activity; rabbit microsomes; concentration not given, pH 7.3, together with: ATP 5 mM).
`O=C(c1ccc(CNCCCN2CCN(C3CCCCC3)CC2)cc1)c1ccc([N+](=O)[O-])cc1` has a selectivity ratio of 40 fold (TMEM97 (Homo sapiens, UniProt Q5BJF2); radioligand binding; RT-4 cell membranes; baseline: sigma1 over sigma2 receptor).
`N=C(NO)NCC[C@H](N)C(=O)O` gave a binding stoichiometry of 0.85 ± 0.01 (Arginase (Schistosoma mansoni, UniProt Q6WVP6); isothermal titration calorimetry; concentration not given).
For `COc1cc2nccc(Oc3ccc(NC(=S)NC(=O)c4ccccc4C)cc3)c2cc1OC`, the remaining activity was 110 ± 5.96% (TRPM8; antagonist; HEK293; 5 µM; baseline: control).
`NCc1ccc(F)cc1` gave a kcat of 0.233 ± 0.00667 s⁻¹ (Maoa (Rattus norvegicus, UniProt P21396); substrate; pH 7.5, 25 °C, α,α-protio substrate).
The remaining binding of `C=CC(=O)N1CCC(COCC(=O)N2CCN(c3nc(-c4cnc(N)nc4C(F)F)nc(N4CCOC[C@@H]4C)n3)CC2)CC1` is reported as 81% (MAP4K2 (Homo sapiens, UniProt Q12851); KINOMEscan; 1 µM).
For `COc1ccc(CN)cc1`, the kcat was 0.1833 ± 0.00135 s⁻¹ (MAOA (Homo sapiens, UniProt P21397); substrate; pH 9.0, α,α-protio substrate).
`O=C(O)C1CCCNC1` (stereo not shown): “normalised MST signal” 0.0193 (SLC6A6 (Homo sapiens, UniProt P31641, G62A); binding, microscale thermophoresis; 62.5 µM, room temperature, together with: 50 nM labelled protein; higher = more binding).
Under “oxygen consumption rate”, `NC(=O)NOCCCCCCCCCC[P+](c1ccccc1)(c1ccccc1)c1ccccc1.O=C([O-])C(F)(F)F` is recorded as 104.1 ± 0.13% (NADH dehydrogenase [ubiquinone] iron-sulfur protein 7, mitochondrial/NADH dehydrogenase [ubiquinone] iron-sulfur protein 2, mitochondrial/MT-ND1; complex I-dependent respiration, Seahorse XF96; HCT-116; 0.1 µM, 24 h; baseline: control).
`C=CC(=O)N1CCC[C@@H](n2nc(-c3ccc(Oc4ccccc4)cc3)c3c(N)ncnc32)C1` gave a remaining activity of 785% (ABL2 (Homo sapiens, UniProt P42684); 0.1 µM).
The inhibition of `CCCCCCCCN(C)c1cc(=O)[nH]c(=O)[nH]1` is reported as 22 ± 2% (FFAR4; antagonist, β-arrestin recruitment; CHO cells; 10 µM).
`O=c1nc(SCc2cc(F)cc(C(F)(F)F)c2)nc(SCc2csc3ccc(Cl)cc23)[nH]1`: “mean decatenated DNA” 39.1% (TOP2A; decatenation; 1.95 µM).
With `Nc1ncnc2c1ncn2[C@@H]1O[C@H](COP(=O)(O)OP(=O)(O)O)[C@@H](O)[C@H]1O` the ΔH was -3.25 kcal/mol (GUK1 (Homo sapiens, UniProt Q16774); binding, isothermal titration calorimetry; molar ratio 0.09853, fitted curve).
`Oc1ccc(/C=C/c2cc(O)cc(O)c2)cc1` has a kon increase of 8.4 fold (O-methyltransferase (Sorghum bicolor, UniProt A0A1B6PFV1); biolayer interferometry; together with: saturating sinefungin; baseline: apo).
`NCCN(C(=O)c1ccc(Cl)cc1Cl)c1ccc(OCc2ccc(Cl)cc2)cc1` has a kon of 1860 M⁻¹ s⁻¹ (GAP50; binding, surface plasmon resonance; 1:1 binding model).
`O=C(ON1C(=O)CCC1=O)c1cc(C(F)(F)F)cc(C(F)(F)F)c1` has a kobs of 0.283 min⁻¹ (CD209 antigen (CD209, Homo sapiens, UniProt Q9NNX6); covalent labelling, intact protein MS; 200 µM).
For `N=C(N)c1ccc(OCCCCCOc2ccc(C(=N)N)cc2)cc1`, the koff was 0.498 s⁻¹ (GAP50; binding, surface plasmon resonance; 1:1 binding model).
`NC(=O)NOCCCCCCCCCCCCCCCCCCCC[P+](c1ccccc1)(c1ccccc1)c1ccccc1.O=C([O-])C(F)(F)F` — result for “oxygen consumption rate”: 35.9 ± 4.82% (NADH dehydrogenase [ubiquinone] iron-sulfur protein 7, mitochondrial/NADH dehydrogenase [ubiquinone] iron-sulfur protein 2, mitochondrial/MT-ND1; complex I-dependent respiration, Seahorse XF96; HCT-116; 1 µM, 24 h; baseline: control).
For `O=C(COP(=O)(O)O)[C@@H](O)[C@H](O)[C@H](O)COP(=O)(O)O`, the enzyme activity was 89.3 and 89.7 and 90.3 (PGM1 (Homo sapiens, UniProt P36871); 0.5 mM, unit not given; baseline: activity at 0 mM set to 100).
The kon of `CNC(=O)[C@@H]1Cc2c([nH]c3cc(Cl)ccc23)C2(CCN(CCc3ccccc3)CC2)N1` is reported as 6220 M⁻¹ s⁻¹ (GAP50; binding, surface plasmon resonance; 1:1 binding model).
